Assay results from different studies.
Compare with care: the assays were run in different laboratories. Several values in a cell are separate wells, animals, samples, runs or records.
SGK1: Serine/threonine-protein kinase Sgk1 (SGK1, Homo sapiens, UniProt O00141)
Chain of UniProt O00141 (whole entry, unmodified, looked up): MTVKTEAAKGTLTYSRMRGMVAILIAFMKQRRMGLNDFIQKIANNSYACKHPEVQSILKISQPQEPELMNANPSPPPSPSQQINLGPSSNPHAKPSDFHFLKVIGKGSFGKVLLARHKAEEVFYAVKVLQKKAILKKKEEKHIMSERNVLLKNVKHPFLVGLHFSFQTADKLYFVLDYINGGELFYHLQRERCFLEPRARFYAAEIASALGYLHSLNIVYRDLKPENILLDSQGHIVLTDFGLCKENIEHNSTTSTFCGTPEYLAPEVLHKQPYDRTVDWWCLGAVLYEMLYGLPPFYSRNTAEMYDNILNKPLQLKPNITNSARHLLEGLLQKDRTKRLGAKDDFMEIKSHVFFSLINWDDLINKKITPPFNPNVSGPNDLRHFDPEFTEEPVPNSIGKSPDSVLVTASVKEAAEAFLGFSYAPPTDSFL
SGK1 S422D: Serine/threonine-protein kinase Sgk1 (SGK1, Homo sapiens, UniProt O00141, S422D)

Compound = COc1ccc(O)cc1-c1c[nH]c2ncc(-c3cncc(C(=O)N(C)C)c3)cc12; target = SGK1; assay = binding, competition with immobilised ligand; setting = 0.2 µM; measurement = inhibition; result = -0.08%
Compound = Cc1cccc(-c2ccc3nc(NC(=O)C4CCCO4)nn3c2)c1 (stereo not drawn); target = SGK1 S422D; assay = enzyme activity, Dundee kinase panel; setting = 10 µM; measurement = remaining activity; result = 103%
Compound = Cc1cccc(O[C@H]2CCC[C@@H](C(C)CNCc3ccncc3)C2)c1 (relative stereo); target = SGK1; assay = enzyme activity, inhibitor; setting = 1 µM; measurement = inhibition; result = -3%
Compound = NC(=O)C[C@H]1CCc2sc3ncnc(O[C@H]4CC[C@H](N5CCOCC5)CC4)c3c21; target = SGK1; assay = enzyme activity, inhibitor; setting = 10 µM; measurement = inhibition; result = 2%
Compound = CNC(=O)C1CCN(c2cc(C)c(F)cc2NC(=O)c2ccc(-c3cc(O)ccc3C)c(C)c2)CC1; target = SGK1; assay = binding, competition with immobilised ligand; setting = 1 µM; measurement = remaining binding; result = 77%
Compound = O=C=[N][Ru-4]123([n]4c5ccc(O)cc5c5c6c(c7cc(F)c[n+]1c7c54)C(=O)NC6=O)[S+]1CC[S+]2CC[S+]3CC1 (stereo not drawn); target = SGK1; assay = enzyme activity; setting = 100 nM, human enzyme, together with: 10 µM ATP; how to read = baseline: untreated; measurement = remaining activity; result = 82%
Compound = Nc1ncc(-c2cc(-c3cnn(CC(F)(F)F)c3)ncc2F)nc1C(=O)NC1CNCC(F)C1 (stereo not drawn); target = SGK1; assay = enzyme activity; setting = 1 µM; how to read = baseline: DMSO control; measurement = remaining activity; result = 95.8%
Compound = O=C(Nc1cc(Cl)ccc1O)c1cnc(-c2ccncc2)s1; target = SGK1 S422D; setting = 10 µM; measurement = inhibition; result = 57.7%
Compound = COc1cc(Nc2nc(C)cc(-c3cnn4nc(OC)ccc34)n2)cc(C(F)(F)F)c1; target = SGK1; assay = binding, competition with immobilised ligand; setting = 1 µM; measurement = remaining binding; result = 94%
Compound = CCN1CCN(Cc2ccc(C(=O)Nc3ccc(C)c(NCc4cnc5[nH]ccc5c4OC)c3)cc2C(F)(F)F)CC1; target = SGK1; assay = binding, competition with immobilised ligand; setting = 1 µM; measurement = remaining binding; result = 100%
Compound = Nc1nc(Nc2ccccc2)sc1C(=O)c1ccccc1; target = SGK1; assay = enzyme activity, inhibitor; setting = 10 µM; measurement = remaining activity; result = 80%
Compound = O=c1c(-c2ccc(Cl)c(CN3CCOCC3)c2)coc2cc(O)ccc12; target = SGK1; assay = enzyme activity, inhibitor; setting = 1 µM; measurement = remaining activity; result = 113%
Compound = COc1ccc(NC(=O)Nc2ccc3c(c2)C(=O)N(C(C)CO)CC(C)C(CN(C)Cc2ccc4c(c2)OCO4)O3)cc1 (stereo not drawn); target = SGK1; assay = kinase activity, KinaseProfiler; setting = 0.03 µM, species human; how to read = baseline: control; measurement = remaining activity; result = 99%
Compound = Cc1ccc(C(=O)Nc2ccc(CN3CCN(C)CC3)c(C(F)(F)F)c2)cc1C#Cc1cnc2cccnn12; target = SGK1; assay = target engagement, NanoBRET; test system = human cells; measurement = upper asymptote; result = 33.9
Compound = CN1CCN(Cc2ccc(-c3ccc(CO[C@H]4CCC[C@@H]4NC(=O)c4cc(-c5cnn(C)c5)cnc4N)cc3)cc2)CC1; target = SGK1; assay = enzyme activity, inhibitor; setting = 0.1 µM; measurement = inhibition; result = 2%
Compound = C=CC(=O)Nc1cccc(-c2cnc3[nH]cc(C(=O)NC(C)(C)C)c3n2)c1; target = SGK1; assay = kinase activity; setting = 0.1 µM; measurement = inhibition; result = 5% and 6%
Compound = COc1cc(-n2cc3cc(F)cc(C(N)=O)c3n2)cc(Cl)c1C1CC(O)(CCO)Cc2ccccc21 (stereo not drawn); target = SGK1; assay = enzyme activity, inhibitor; setting = 10 µM; measurement = inhibition; result = 1.81%
Compound = Cc1cccc(-c2ccc3nc(NC(=O)C4CCOCC4)nn3c2)c1; target = SGK1 S422D; assay = enzyme activity, Dundee kinase panel; setting = 10 µM; measurement = remaining activity; result = 100%
Compound = COc1c(OCCCN2CCOCC2)ccc2c1N=C(NC(=O)c1cnc(N)nc1)N1CCN=C21; target = SGK1; assay = kinase activity, inhibitor; setting = 1 µM; how to read = baseline: untreated control; measurement = remaining activity; result = 98%
Compound = Nc1ncc2c(n1)-c1c([nH]c3ccc(C4=CCOCC4)cc13)CCC2; target = SGK1; assay = binding, competition with immobilised ligand; setting = 1 µM; measurement = remaining binding; result = 63%
Compound = C=CC(=O)N1CCc2ccc(-n3c(=O)ccc4cnc5ccc(-c6cnn(C)c6)cc5c43)cc21; target = SGK1; assay = KINOMEscan; setting = 1 µM; how to read = baseline: DMSO control; measurement = remaining binding; result = 100%

For quick reference, copied from above:
Compound = O=C(Nc1cc(Cl)ccc1O)c1cnc(-c2ccncc2)s1; target = SGK1 S422D; setting = 10 µM; measurement = inhibition; result = 57.7%
Compound = CCN1CCN(Cc2ccc(C(=O)Nc3ccc(C)c(NCc4cnc5[nH]ccc5c4OC)c3)cc2C(F)(F)F)CC1; target = SGK1; assay = binding, competition with immobilised ligand; setting = 1 µM; measurement = remaining binding; result = 100%
Compound = COc1cc(-n2cc3cc(F)cc(C(N)=O)c3n2)cc(Cl)c1C1CC(O)(CCO)Cc2ccccc21 (stereo not drawn); target = SGK1; assay = enzyme activity, inhibitor; setting = 10 µM; measurement = inhibition; result = 1.81%
